Measurements pooled from the literature.
Numbered parts are unrelated; each lists some results of a single study. Substitutions count along the parent as printed.

Series 1
Target: Sal-like protein 4, full length isoform A (SALL4, Homo sapiens, UniProt Q9UJQ4, residues 1-1053)
UniProt Q9UJQ4, sequence (whole entry, looked up): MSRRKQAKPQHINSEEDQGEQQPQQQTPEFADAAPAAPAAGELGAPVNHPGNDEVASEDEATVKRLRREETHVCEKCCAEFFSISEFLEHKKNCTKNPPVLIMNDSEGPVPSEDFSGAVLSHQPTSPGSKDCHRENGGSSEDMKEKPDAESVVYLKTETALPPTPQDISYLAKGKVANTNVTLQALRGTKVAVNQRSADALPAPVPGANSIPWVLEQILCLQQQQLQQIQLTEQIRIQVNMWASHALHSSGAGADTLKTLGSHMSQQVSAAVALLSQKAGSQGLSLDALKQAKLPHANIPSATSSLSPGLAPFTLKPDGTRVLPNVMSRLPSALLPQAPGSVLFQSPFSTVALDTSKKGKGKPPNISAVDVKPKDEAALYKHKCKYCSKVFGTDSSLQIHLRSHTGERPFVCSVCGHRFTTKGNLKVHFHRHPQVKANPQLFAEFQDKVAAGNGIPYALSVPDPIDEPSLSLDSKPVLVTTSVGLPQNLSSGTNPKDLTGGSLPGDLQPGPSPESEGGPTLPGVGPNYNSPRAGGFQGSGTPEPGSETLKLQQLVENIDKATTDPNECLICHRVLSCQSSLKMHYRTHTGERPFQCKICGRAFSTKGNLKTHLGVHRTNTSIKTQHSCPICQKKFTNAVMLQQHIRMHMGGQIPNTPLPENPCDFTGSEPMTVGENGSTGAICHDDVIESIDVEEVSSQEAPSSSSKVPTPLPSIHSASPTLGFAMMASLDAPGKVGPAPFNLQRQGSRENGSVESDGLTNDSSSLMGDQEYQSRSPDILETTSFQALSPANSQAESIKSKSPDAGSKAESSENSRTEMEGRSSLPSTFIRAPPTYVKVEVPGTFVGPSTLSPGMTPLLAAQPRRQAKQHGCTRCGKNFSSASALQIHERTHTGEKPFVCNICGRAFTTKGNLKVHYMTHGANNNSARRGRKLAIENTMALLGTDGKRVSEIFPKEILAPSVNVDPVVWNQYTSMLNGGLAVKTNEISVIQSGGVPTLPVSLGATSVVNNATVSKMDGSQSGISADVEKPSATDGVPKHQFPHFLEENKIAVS
Method: universal PBM
Molecule type: double-stranded DNA, one strand shown
Medium: in vitro
Concentration: 600 nM
Notes: 8-mer, flanks averaged, mean of replicates
Reading: higher = stronger binding
Strand	E-score
CAAAGTCC	-0.25
AATCCCCG	-0.125
AGTCTCAT	0.135
CGCATGGC	-0.159
ATCGCACC	-0.102
GCCTCTAC	-0.234
AGGGAACC	-0.212
CAGAGTTC	-0.169
CCACCCAA	-0.114
CACCATCC	-0.22
AACACAGC	0.1
ATTTGGAA	0.221
ACAAGTCG	-0.0724
TGAATCCA	0.151
CCGTCCCG	-0.277
GTCCTCCA	0.0705
AAGATTGT	0.168
CGAAGCAG	-0.126
GCACATAC	-0.0978
CGGTTAAC	-0.0767
AAGTCCCA	-0.0378
GGCCCCAC	-0.392
CGAGTGCA	-0.0516
GGGCTCTA	-0.199
AATCCCGC	-0.122

Series 2
Target: Phosphate system positive regulatory protein PHO4, full length, GST-tagged (PHO4, Saccharomyces cerevisiae, UniProt P07270, residues 1-312)
Method: competition protein-binding microarray
Molecule type: double-stranded DNA, one strand shown
Medium: in vitro
Concentration: 2 µM
Notes: whole 60-bp probe, lowest competitor level
Added: Cbf1 competitor, 0.05 µM
Reading: higher = stronger binding
Constant ends, left off below: … GTCTTGATTCGCTTGACGCTGCTG
Target sequence (chain): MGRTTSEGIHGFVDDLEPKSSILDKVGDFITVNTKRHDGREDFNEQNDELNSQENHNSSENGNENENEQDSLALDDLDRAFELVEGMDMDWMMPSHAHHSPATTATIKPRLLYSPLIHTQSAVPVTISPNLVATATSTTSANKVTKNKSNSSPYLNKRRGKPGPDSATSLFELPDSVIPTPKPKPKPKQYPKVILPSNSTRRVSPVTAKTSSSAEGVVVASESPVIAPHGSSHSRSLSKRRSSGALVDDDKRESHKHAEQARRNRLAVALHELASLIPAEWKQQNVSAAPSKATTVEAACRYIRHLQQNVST
Strand	fluorescence intensity [a.u.]
TTTTCTTTTACCGGCCACGTGAAATGATGATAAAAA	12700
CTTCTGTAAATTTCTCACGTGTTTTGACGCGCCCCG	11400
AAATTACTAAGTTGTGACGTGGGTGACGCCGTATGA	6090
GCGCAATATGCAGGTACCGTGCCGACTGATTCCCTT	5280
CTTCTGTAAATTTGTTCAGTGGGTGGACGCGCCCCG	4390
AGAAATGAGTGGAAGCGCGTGGAAGCCCGTCTAGCA	8270
CCTCCTCTACCGTTCGACATGACAAAAAGGCGTTGG	4810
AGGAACTTGAGCGTAAACGTGGACGTCTGCCTGTCG	11100
CCATGCCCGGGTACCCACGGCTCCTCGGAGGCCGGG	4260
AAAGCGGTAATTTGTTGTGTGGGTGCAGATATCTAT	5120
GTCTTGTCTCATTGGTGAGTGGGTGTCCCCACTTCA	5190
AATACTTCTGAGTTCTACGTGGTGAAAAAATATTTT	5540
TACCGATGATGTTGTCATGATGGACAGTGATGAGGG	5320
TGCGCAACAACTTGGAAAGTGGGTGTATGTCTAGAA	4150
TAAGGAAAAACTCACCACGTTCTTCTGAACATGTTC	11300
CTTGTACTTCAATCTCACGTTTCTCCATATGAGTCT	9890
GTCTACAGCGTACTTCACGTTGTTCTCCTGAGGCAG	8710
AGCATTGGATCTCTAAATTAAATGCGTTAAACAGGG	3890

Series 3
Target: RNA binding protein fox-1 homolog 2, RRM domain, GST-SBP tag (RBFOX2, Homo sapiens, UniProt O43251-10, residues 100-194)
Method: RNA Bind-n-Seq
Molecule type: RNA
Medium: in vitro
Concentration: 365 nM
Notes: natural RNA segment, single round, ends assumed
Relative to: no-protein control
Reading: higher = stronger binding
Constant ends, left off below: GGGAGUUCUACAGUCCGACGAUC … UGGAAUUCUCGGGUGCCAA
Construct (chain): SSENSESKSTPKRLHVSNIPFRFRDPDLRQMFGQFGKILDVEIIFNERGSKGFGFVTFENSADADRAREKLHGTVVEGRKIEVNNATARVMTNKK
Strand	RBNS enrichment (R)
GGGCAGCGAGGGAAGGAGGGAGGAGGCAUCUUCCCUGAAGCCCCCAAACUGGACCCCUUCUUCAGACCCCCACAAACACCCCAGCUUUCUGGCUUUUCUGAGGGCUAGGG	0.154
UUACAUAACAUUAAUAUUGUAUCAGACCUCCUUAUGAAAAUGAGUAUGGAUGUGCACAGUAUGUUUGAUUUUUAUCCACAAGAAUGAAUCUGAUUCAGAAUGCUUUUCUC	0.583
UUUGUAAAUUCUUUCAGCACUGGUGUCCAUCUUUGUCUUUGUUUCAGUUAAGCUCAAUAGCGAAUGUGGGACCCCCUCCUCUGACCUUCCCUGGGGGAGAAACCCUCUUG	0.231
UGUAUAUUUCUAGUGUUUACAGACAGUAAAUGUGUAUAUGUAGUAACUAUUUACAGAACAUGCAUCCUUAAACUGUGACUUCUCACCUAGUGCAGAACUUUUACCAGGCU	0.633
GUUGGGCAGUCUCAGUUGAGAAGCUUUAUCGCCUCAAGCCAAGUGGGAGCUCUCUCCCUCAUGCCUGUGGGUAUUUCUGAAAUGAAGCUGCGCCCUGUUCUGUCCUUUCC	0.371
UGCUGACUCUCCUUCAACAUCCUCACCCCCACCCCUGGGCACCAUUUAGGACAAGACUUCCUUAUUUAUCAAUUACUUGAUUUAUCUUCUCAGGACUCAUUGUUCCACCC	0.522
UUGUGGGCAGGGAGGGCAGAAAUAAAGUCUGCAGCCGUGCCACUCCUUGGGUCAAAAGGACACGCAGACUUUUGGGUCAUUCUUUGGACAGGUGAUCUGUAGCAAGCCUU	0.367
UCUGCUGAGUGGCUCUAGUCCUGAGCCUGGAGUUGCUGAGCUGACCCCAUUCUGAAAGUCUGGCUUAGCGGGCAACACAGAGCCCUCAGCAUCCCAAACAUUGCCAGGAG	0.377

Series 4
Target: CREBZF, bZIP domain (human)
Method: DHFR protein complementation
Medium: yeast
Notes: single substitutions, most at no-binding floor
Relative to: wild-type JUN-FOS pair
Reading: higher = stronger binding
Starting sequence: JUN, bZIP domain (human); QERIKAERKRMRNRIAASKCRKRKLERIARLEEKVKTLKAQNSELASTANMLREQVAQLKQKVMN; partner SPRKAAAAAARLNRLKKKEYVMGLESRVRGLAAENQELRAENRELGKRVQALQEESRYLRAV
Change	binding fitness [natural log]
L38H	-1.49
S47H	-1.42
E44W	-1.53
T37M	-1.46
R53I	-1.49
S43L	-1.44
E32Q	-1.46
I28D	-1.46
E33W	-1.38
A29Y	-1.58
L31C	-1.44
R53T	-1.55
A29W	-1.41
Q55H	-1.52
T37I	-1.43
R53S	-1.51
Q55T	-1.4
T48I	-1.45
E44C	-1.53
A49S	-1.55
E44P	-1.51
A46V	-1.49
V56A	-1.43
A40Q	-1.4
A40W	-1.49

Excerpt of the above (series 4):
Change	binding fitness [natural log]
A46V	-1.49
T37I	-1.43
Q55H	-1.52
L38H	-1.49
R53S	-1.51
E44W	-1.53
A29Y	-1.58
E44P	-1.51
Q55T	-1.4
R53I	-1.49
E33W	-1.38
